Assay results gathered from unrelated publications.
Several values in a cell are separate wells, animals, samples, runs or records. ± gives the spread as reported.
Sequence of UniProt P50613 (whole entry, looked up): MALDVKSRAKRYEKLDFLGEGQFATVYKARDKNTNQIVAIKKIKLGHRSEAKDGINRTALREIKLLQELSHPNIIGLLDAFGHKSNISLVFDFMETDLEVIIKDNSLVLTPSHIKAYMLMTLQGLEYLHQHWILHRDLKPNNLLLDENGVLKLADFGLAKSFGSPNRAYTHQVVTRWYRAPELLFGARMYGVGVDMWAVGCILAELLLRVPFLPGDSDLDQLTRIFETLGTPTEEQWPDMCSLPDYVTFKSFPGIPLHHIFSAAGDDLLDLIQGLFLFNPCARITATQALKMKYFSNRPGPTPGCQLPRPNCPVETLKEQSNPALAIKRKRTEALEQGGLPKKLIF

| Compound | tested on | assay | system | setting | how to read | endpoint | value |
| --- | --- | --- | --- | --- | --- | --- | --- |
| CC[C@H](C)[C@H](NC(=O)[C@H](Cc1ccccc1)NC(=O)[C@H](CCC(=O)O)NC(=O)[C@H](CCCNC(=N)N)NC(=O)[C@H](C)NC(=O)[C@H](C)NC(=O)[C@H](CCC(N)=O)NC(=O)[C@H](CCC(=O)O)NC(=O)[C@H](CCC(=O)O)NC(=O)[C@H](CC(C)C)NC(=O)[C@H](Cc1ccc(O)cc1)NC(=O)[C@H](CO)NC(=O)[C@H](CO)NC(=O)[C@@H](NC(=O)[C@H](CC(=O)O)NC(=O)[C@H](CO)NC(=O)[C@@H](NC(=O)[C@H](Cc1ccccc1)NC(=O)[C@@H](NC(=O)CNC(=O)[C@H](CCC(=O)O)NC(=O)[C@H](C)NC(=O)CCc1c[nH]cn1)[C@@H](C)O)[C@@H](C)O)C(C)C)C(=O)N[C@@H](C)C(=O)N[C@@H](Cc1c[nH]c2ccccc12)C(=O)N[C@@H](CC(C)C)C(=O)N[C@H](C(=O)N[C@@H](CCCNC(=N)N)C(=O)NCC(=O)N[C@@H](CCCNC(=N)N)C(=O)N[C@@H](CCCCNC(=O)COCCOCCNC(=O)COCCOCCNC(=O)CC[C@H](NC(=O)CCCCCCCCCCCCCCCCC(=O)O)C(=O)O)C(=O)NCC(=O)NCC(=O)N[C@@H](CO)C(=O)N[C@@H](CCCCNc1c(NCCCCCN(O)C(=O)CCC(=O)NCCCCCN(O)C(=O)CCC(=O)NCCCCCN(O)C(C)=O)c(=O)c1=O)C(=O)O)C(C)C [zirconium-89 labelled] | – | gamma counting | rat, skin at injection site | intravenous, 3 nmol/kg, 168 h | – | tissue uptake | 0.1 %ID/g |
| OCc1ncc2n1-c1ccc(Cl)cc1C(c1ccccc1F)=NC2 | – | – | human, plasma | oral, 7.5 mg of midazolam, day 26, geometric mean, no amenamevir | – | AUC(0-t) | 40.4 ng·h/mL |
| CCCC(C(=O)c1ccc(O)c(O)c1)N1CCCC1 (stereo not shown) | – | LC-MS/MS | rat, trunk blood plasma | subcutaneous, 4 mg/kg MDPV, 240 min | – | plasma concentration | 60.4 ± 6.9 ng/mL |
| CCC(CC)COC(=O)[C@H](C)N[P@](=O)(OC[C@H]1O[C@@](C#N)(c2ccc3c(N)ncnn23)[C@H](O)[C@@H]1O)Oc1ccccc1 | – | – | human | intravenous, 100 mg | – | participants with nausea | 0% |
| Cc1ncc2n1-c1ccc(Cl)cc1C(c1ccccc1F)=NC2 | – | – | wild-type mice, plasma | intravenous, 0.3 mg/kg, with: 14-day BC 500 mg/kg | – | mean residence time | 0.227 ± 0.00833 h |
| C#Cc1ccc2c(c1)C(c1ccccn1)=NCc1c(-c3cnco3)ncn1-2 | – | – | human hepatocytes | 2 µM, 4 h, 37 °C | – | metabolite peak area share | ~99% |
| CCCC(C(=O)c1ccc2c(c1)OCO2)N1CCCC1.Cl (racemic) | – | – | rat | subcutaneous, 1 mg/kg, 40 min | – | brain-to-plasma ratio | 9.5 and ~10 |
| COc1cccc(C2(O)CCCCC2CN(C)C)c1 (stereo not shown) | – | joint PK model | human, whole blood | oral, two-compartment metabolite model | – | absorption rate constant | 4.06 ng/h |
| C[C@H]1CN(c2n[nH]c3nc(N[C@H]4CC[C@H](NS(=O)(=O)CCC(F)(F)F)CC4)ncc23)CCO1 | CDK7 (Homo sapiens, UniProt P50613) | Kinobeads competition | HEK293, K562, placenta lysate | 0.16 µM, unit not given | baseline: vehicle | remaining binding | 0.94 |
| CCCC(C(=O)c1ccc(O)c(OC)c1)N1CCCC1 (stereo not shown) | – | LC-MS/MS | rat, trunk blood plasma | subcutaneous, 1 mg/kg MDPV, 40 min | – | plasma concentration | 15.6 ± 1.7 ng/mL |
| O=C1c2c(O)c(=O)ccn2N([C@@H]2c3ccccc3SCc3c2ccc(F)c3F)[C@@H]2COCCN12 | – | – | BALB/c mouse | subcutaneous, 2 mg/kg q24h | – | trough concentration | 1.81 ng/mL |
| CN1CC[C@@H](c2c(O)cc(O)c3c(=O)cc(-c4ccc(C(F)(F)F)cc4Cl)oc23)[C@@H]1CO | – | refers to: Pyrexia | B-cell malignancies | oral, 100 mg, intermittent dosing | – | patients with adverse event | 0% |
| CO[C@H]1C[C@@H]2CC[C@@H](C)[C@@](O)(O2)C(=O)C(=O)N2CCCC[C@H]2C(=O)O[C@H]([C@H](C)C[C@@H]2CC[C@@H](OC(=O)NCCOCCOCCOCCOCCOCCOCCOCCOCCC(=O)N3CCc4cc(Cn5nc(-c6ccc7oc(N)nc7c6)c6c(N)ncnc65)ccc4C3)[C@H](OC)C2)C[C@@H](O)[C@H](C)/C=C(\C)[C@@H](O)[C@@H](OC)C(=O)[C@H](C)C[C@H](C)/C=C/C=C/C=C/1C | – | phase 1 dose escalation, refers to: nausea | advanced solid tumour patients | intravenous, 12 mg weekly, any grade | – | TRAE incidence | 50% |
| CN/C(=N\[N+](=O)[O-])NCc1cnc(Cl)s1 | – | – | soil | 56 days, nominal 3.3 | – | recovery | 51.5% |
| CCN(CC)C(=O)[C@@H]1C=C2c3cccc4[nH]cc(c34)C[C@H]2N(C)C1 | – | compartmental pharmacokinetic model | human | dose not given, with: placebo | – | absorption rate constant ka | 1.2 h⁻¹ |
| COc1cc2c(Oc3ccc4[nH]c(C)cc4c3F)ccnc2cc1OCC1(N)CC1 | – | – | paediatric recurrent refractory sarcoma | 12 mg | – | grade 1 or 2 Fever | 9.1% |
